Published values from different studies.
A part holds a random share of what one study measured. Changes are numbered by the printed parent chain.

Block 1
Target: CCND3, cyclin fold, Cln2 fusion (human)
Method: yeast growth competition, sequencing
Sample: yeast
Notes: weak parent motif
Relative to: not given
Direction: higher = stronger binding
Starting sequence: RBL2 docking peptide (human); STTRRRLFVENDS; partner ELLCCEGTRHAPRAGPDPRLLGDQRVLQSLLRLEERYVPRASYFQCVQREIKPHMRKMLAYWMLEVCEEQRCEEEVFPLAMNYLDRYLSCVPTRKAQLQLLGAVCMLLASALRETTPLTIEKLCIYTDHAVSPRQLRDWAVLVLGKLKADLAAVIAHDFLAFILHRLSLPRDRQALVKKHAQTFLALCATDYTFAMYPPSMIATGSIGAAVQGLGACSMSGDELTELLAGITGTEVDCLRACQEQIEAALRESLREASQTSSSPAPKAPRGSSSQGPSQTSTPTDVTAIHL
| Change | normalised enrichment score |
| --- | --- |
| S13Q | 0.0109 |
| L7M | 0.133 |
| R6H | 0.0774 |
| T2Q | 0.237 |
| S1E | 0.0395 |
| L7Y | 0.0382 |
| D12K | 0.155 |
| R4G | 0.079 |
| R4L | 0.253 |
| S13Y | 0.155 |
| E10Q | 0.0992 |
| R6N | 0.158 |
| T2N | 0.192 |
| N11K | 0.124 |
| R5N | 0.12 |
| E10S | 0.16 |
| N11A | 0.0232 |
| V9T | 0.243 |
| L7F | 0.116 |

Block 2
Target: Ras GTPase-activating protein-binding protein 1, RRM domain (G3BP1, Homo sapiens, UniProt Q13283)
Chain of UniProt Q13283 (whole entry, looked up): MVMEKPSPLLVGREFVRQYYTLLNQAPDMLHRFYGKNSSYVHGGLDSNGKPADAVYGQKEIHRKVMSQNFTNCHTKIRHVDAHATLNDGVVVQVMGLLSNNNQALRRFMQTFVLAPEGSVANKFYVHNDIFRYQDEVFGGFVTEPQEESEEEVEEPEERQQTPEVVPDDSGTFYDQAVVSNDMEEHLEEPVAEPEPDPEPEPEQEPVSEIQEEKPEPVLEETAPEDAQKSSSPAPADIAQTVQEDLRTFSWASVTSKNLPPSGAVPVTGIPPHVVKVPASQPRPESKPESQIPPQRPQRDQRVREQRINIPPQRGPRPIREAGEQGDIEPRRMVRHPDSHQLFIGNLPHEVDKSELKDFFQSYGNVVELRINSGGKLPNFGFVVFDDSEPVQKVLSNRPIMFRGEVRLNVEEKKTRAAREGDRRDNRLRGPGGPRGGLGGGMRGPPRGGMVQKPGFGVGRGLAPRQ
Method: RNA Bind-n-Seq
Form: RNA
Sample: in vitro
Tested at: 1 µM
Notes: whole 134-nt RNA, ends assumed
Added: 150 mM KCl
Relative to: input library
Direction: higher = stronger binding
All sequences stand within: GGGAGUUCUACAGUCCGACGAUC … UGGAAUUCUCGGGUGUCAAGG
| Oligonucleotide | log2 enrichment |
| --- | --- |
| UGGAGAAGGAACGUGAUAAAGAAGUAAGCGAUGAUGAGGCUGAAGAAAAGGAAGACAAAGAAGAAGAAAAAGAAAAAGAAGAGAAAGAGU | -0.125 |
| CUGUGCUACACAUCGUAUGUACCGAAUCGGGCCCCCCCGGGGCCCCCCCGGGGCCCCCCCGGAAAGUAUUAUGUUACGCCGUUCGGAUCU | -0.493 |
| UGGCCCUGGUGGCAUGCGGGGAGGAAGAGGUGGCCUCAUGGAUCGUGGUGGUCCCGGUUGAAUGUUCAGAGGUGGCCGUGGUGGAGACAG | 0.759 |
| CUCAAGUCCUGUGCUACACAUCGUAUGUACCGAAUCGGAAGGGGAAGGAAGGGAAAGUAUUAUGUUACGCCGUUCGGAUCUGCACUUCCA | -0.205 |
| UUUAAUGUCUGCGGCACAAUGCCUGUCUGUGGGACCAUCCUGGGAAAACCUGCUUCUGGCUGUGAGGCAGAAACCCAAACUGAAGAGCUC | 0.179 |
| AGUCCUGUGCUACACAUCGUAUGUACCGAAUCGGGUUUUGGGGUUUUGGGUUUUGGGGAAAGUAUUAUGUUACGCCGUUCGGAUCUGCAC | 0.324 |
| AACAGACAACACGCACCCACACAGACACAGAGGGAAGGGGUUGGGAUGGGGACAGGGUGCACAGCAGGGCGGGGUAGGACCCCAGCCCCU | -0.184 |
| UAACUUUAGAGGAGGAUCUGAUGGAUAUGGCAGUGGACGUGGAUUUGGGGAUGGCUAUCAUGGGUAUGGAGGAGGACCUGGAGGUGGCAA | -0.45 |
| ACCAUGCAGGUGGGCAUCUUUGGGAAGUGGGGCAAGGGGGGGAUAGGGAGGGGGGUAACACUUUGGGAACAGGUGAAACCAGGUCGUUUC | -0.31 |
| GUCCUGUGCUACACAUCGUAUGUACCGAAUCAAAUUUUUAAAUUUAAAUUUUUUUAAAAAAGUAUUAUGUUACGCCGUUCGGAUCUGCAC | -0.628 |
| AGUCCUGUGCUACACAUCGUAUGUACCGAAUCGGGUUUUUGGGAAAAAGGGUUUGGGAAAGUAUUAUGUUACGCCGUUCGGAUCUGCACU | 0.208 |
| ACCAUGCAGGUGGGCAUCUUUGGGAAGUGGGGCAAGGGGGGGAUAGGGAGGGGGGUAACACUUUGGGAACAGGUGGUCCCAGCUCGUUUC | 0.858 |
| GUCCUGUGCUACACAUCGUAUGUACCGAAUCGGGGUGGGGAAAGGGGAAAAAAAGGGGAAAGUAUUAUGUUACGCCGUUCGGAUCUGCAC | 0.747 |
| GCAGGAAGUAAAAACAAAUGGAAAUGCUUCGGAUAGUGGCAGGGGUGGGGGUUGCUAAGGAAAGGGUGGGAUGGGAGUUGGUAAAGAGUU | 1.39 |

Block 3
Target: RNA binding protein fox-1 homolog 2, RRM domain, GST-SBP tag (RBFOX2, Homo sapiens, UniProt O43251-10, residues 100-194)
Method: RNA Bind-n-Seq
Form: RNA
Sample: in vitro
Tested at: 365 nM
Notes: natural RNA segment, single round, ends assumed
Relative to: no-protein control
Direction: higher = stronger binding
All sequences stand within: GGGAGUUCUACAGUCCGACGAUC … UGGAAUUCUCGGGUGCCAA
Residues (chain): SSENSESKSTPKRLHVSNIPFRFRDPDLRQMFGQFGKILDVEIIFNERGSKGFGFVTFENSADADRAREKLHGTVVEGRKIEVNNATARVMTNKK
| Oligonucleotide | RBNS enrichment (R) |
| --- | --- |
| GGAAACCCCAGCUCCCCCAACCCUGCUACCACUGGCCUGCCACCUUGACCCUGCUCAACCUUCUCCCUCUAGCACAAGGGAACAUUUCUAGAAAAGUAAAAUCUACUUUU | 0.904 |
| UUGUCUUUAUGCUAUGUACAGAGAAAUGUGAUAAUUUUUUAUAAUAAAUAUUUUUUAUGAUGAUAAAGACAUUGUGUUUUAAAGUUCUUUUCUCAAUUUACCUCAAGGUA | 1.11 |
| CCCAGCUCCCCUCACUAUCUUUUGACACUAAGAUGGAAGGUUACUAAGUUGCAGGAACAGGAUGAAAAUUCUUUAUUACCCUCUUCAACUUUUAGGACGAGCACUUGGGA | 0.389 |
| CGUAUGUUCAUAUGGAUAAGACUAAGUCCAAAAAGGUGACUACAUCCAAAUUUAUAUUUCGGGGAAAUACCAUGAGAUAAUUAUAGCAUACUGGGCAUGUGUCCACACAC | 0.559 |
| CUCAUGUGAAGUGAUCUUGAUUCUUCUGAGGUUUUAAACUAAAAUGUUGCUUCCUGUUUUAGUGUCUGAACUCUGACAGGGUGACAGGGACCUUGCUGGUGUAGUCUUUU | 0.858 |
| CUGGUCAGCACAGUCCCCAGCGGAGGCUCAUGGUGUCUCAUUAAACCAUCACAUACCAGUAACUCGGUGGGCAGGGAGUCUGUUCCCCCGUCCUUGCAUUCCGCUGGCUG | 0.333 |
| UAUAAUGUAACGUUUUAUUUCAAUUGUUUAUAUGGAUAGUCUGAGCAGGUACGGUUCUGAUUCUGAUUGCUAUCAAUAACACCCCAUACUUUCUUUGAACAUACUUUGAC | 0.323 |
| AAAAACCUUUCAGGAAGUCAAUGAUUUCUGUGAUUGAUAUAAUUCUAAGGUGUCUGAGAGCAGGUACAGAAUAGGAACUUCAGAGGCUUUGUUUAAACGCAAAGCUUUGU | 0.26 |
| UGCAUACCUGUUUAGAACCAAAACCACCAUGACACAGUUUUUAUAGUGUCUGUAUAUUUGUGAUGCAAUGGUCUUGUAAAGGUUUUUAAUGAAAACUACCAUUAGCCAGU | 1.31 |
| GUUUUUGUUCUGUCUACCCUCUCAGGGAUAUGAGAUUCUCCCAGGCUUGUUUCCUGUCAGCCAUCUCUGUCUUUGGGUAUGAAACAUAAGGAUGGCUCCUCCGGUGUCGU | 0.358 |
| GGCUGCUUUGCAGUCCCUGCUAAAGGGACCACCAGAGGGAGGGACAGUUCGUACGGCCCUCUCAGCACGCGUCAUGAGUGGGACUGGAGCCCCUGCGGGACUAGCACAGC | 0.488 |
| AAAACUGAAAGUGUGUGAUAUUUUUGUUGACGUUAUUUAUAAAAAUAUUUCAACGCUGUCAAUAAUUGUCUUUAACCUCCAAGUAGGUCUUGCAGAAUCGUCUUCAUUUC | 0.377 |

Block 4
Target: Interferon regulatory factor 7, full length, phosphomimetic (IRF7, Homo sapiens, UniProt Q92985, residues 1-503, S471D/S472D/S475D/S476D/S477D/S483D/S484D/S487D)
Method: protein-binding microarray
Form: double-stranded DNA, one strand shown
Sample: in vitro
Tested at: 2200 nM top
Notes: 60-bp whole probe
Added: salmon DNA 0.4 mg/ml
Relative to: random background probes
Direction: higher = stronger binding
All sequences stand within: GCCTAGCAC … GTCTTGATTCGCTTGACGCTGCTG
Construct (chain): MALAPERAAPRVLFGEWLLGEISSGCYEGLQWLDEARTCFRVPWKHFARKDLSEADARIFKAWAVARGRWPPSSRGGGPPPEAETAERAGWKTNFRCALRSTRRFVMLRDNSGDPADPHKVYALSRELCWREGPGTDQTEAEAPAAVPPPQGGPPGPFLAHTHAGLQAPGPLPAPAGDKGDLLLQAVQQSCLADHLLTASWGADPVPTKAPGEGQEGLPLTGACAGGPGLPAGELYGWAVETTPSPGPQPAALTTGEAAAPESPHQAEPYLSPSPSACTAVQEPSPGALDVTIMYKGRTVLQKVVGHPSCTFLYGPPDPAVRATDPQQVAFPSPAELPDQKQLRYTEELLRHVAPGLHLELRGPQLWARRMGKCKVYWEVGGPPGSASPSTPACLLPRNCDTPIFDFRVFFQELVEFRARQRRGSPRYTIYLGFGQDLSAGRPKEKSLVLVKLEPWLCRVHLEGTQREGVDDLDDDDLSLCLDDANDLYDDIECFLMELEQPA
| Oligonucleotide | fitted relative affinity |
| --- | --- |
| TTAGGACTGGACTTTAGGTTAGTGCTA | -0.674 z-score |
| GACGGTTTCGACCATCGGGACGTGCTA | 2.63 z-score |
| ATGAAAATCTCAATGGGTTAGTGCTAG | -0.387 z-score |
| GACGGTTTCGGGACAGGGGACGTGCTA | 4.37 z-score |
| ATTGGTTGAACATGAACTTCGTGCTAG | 0.339 z-score |
| TTAGAGATCGGGACTGGATTAGTGCTA | -0.788 z-score |
| TTAGATCTCAGACTTGATTAGTGCTAG | -0.279 z-score |
| GATGGTATCGACTATCGGGACGTGCTA | 0.0743 z-score |
| TTAGGTTTCGGTTTCGGATAGTGCTAG | 14.7 z-score |
| GACGGTATCCTCCTGCTGACGTGCTAG | 0.889 z-score |
| GTCGGACTGGGGACTGGGGACGTGCTA | -0.459 z-score |
| GACGGTCTCGGTTTTGGGACGTGCTAG | 1.3 z-score |
| TTAAGTATCGGGTATCGGTTAGTGCTA | 0.701 z-score |
| TTAGAACTGAGTATCGACTAGTGCTAG | -0.532 z-score |
| TTAGGTTTCCTAGTGCTTTAGTGCTAG | 0.528 z-score |
| ATGCCTTTCGTCAAGAAGACGTGCTAG | 1 z-score |
| GTGGGAAACCGGAAAGGCAAAGTGCTA | -0.645 z-score |
| TTAGGTTTCGGTTCCGGTTTGTGCTAG | 12.6 z-score |
| TTAGACATCGGGTATCGATTAGTGCTA | -0.0603 z-score |
| CACGAACTGGGGACTGGAGACGTGCTA | -0.482 z-score |
| TTCCATTTCTGTTTTTGCTTGTGCTAG | 4.65 z-score |

Block 5
Target: Histone acetyltransferase KAT6A, winged helix 2, GST fusion (KAT6A, Homo sapiens, UniProt Q92794, residues 85-181)
Method: protein binding microarray
Form: double-stranded DNA, one strand shown
Sample: in vitro
Tested at: not given
Notes: 8-mer, flanks averaged, mean of 2 arrays, mostly near background
Relative to: not given
Direction: higher = stronger binding
Construct (chain): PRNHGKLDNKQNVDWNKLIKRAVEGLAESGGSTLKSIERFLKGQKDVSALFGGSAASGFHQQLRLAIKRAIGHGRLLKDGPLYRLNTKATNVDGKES
| Oligonucleotide | E-score |
| --- | --- |
| GGTACTCA | -0.0553 |
| AATGTTGG | -0.19 |
| AGATATGG | -0.0529 |
| GCCGGCGC | 0.271 |
| CTACTATA | -0.106 |
| GCGACCAA | 0.11 |
| CGGAGTCC | 0.195 |
| GCGTTGAC | -0.0214 |
| ATCTCACA | -0.0377 |
| CCTCTGCA | 0.132 |
| ATGACCAA | -0.0964 |
| AAACGACA | 0.0556 |
| GGATAGGA | -0.0833 |
| ACCTCTGA | -0.0193 |
| CTGCCTTC | 0.0155 |
| CGCTGTTC | 0.113 |
| CCGTCAGC | -0.0308 |
| CAATGCCA | -0.00455 |
| ACGATAAA | -0.0572 |
| GACTATCC | -0.168 |
| CTGTATCC | -0.0737 |
| ATTTTCAA | 0.101 |
| GGTACAAC | -0.092 |
| CCAACCAG | -0.00658 |
| CCCCCATC | -0.0858 |

Further values, each from its own experiment
| Molecule | target | test | system | setting | how to read | quantity | result |
| --- | --- | --- | --- | --- | --- | --- | --- |
| PhoQ, residues 284 288 289 292 302 303 SSTLLI | PhoP, residues 12 14 15 18 19 GQALL (Escherichia coli, UniProt P23836) | Sort-seq, refers to: YFP reporter | E. coli | PhoQ-PhoP variant library, added: 10 µM Mg2+ | relative to: high Mg2+ state, higher = stronger signaling | fold induction | 5.91 |

Some of these lines once more (block 1):
| Change | normalised enrichment score |
| --- | --- |
| R4L | 0.253 |
| S13Y | 0.155 |
| E10Q | 0.0992 |
| R6N | 0.158 |
| T2N | 0.192 |
| N11K | 0.124 |
| R5N | 0.12 |
| E10S | 0.16 |
| N11A | 0.0232 |
| V9T | 0.243 |
| L7F | 0.116 |
